Results gathered from unrelated publications.
Each numbered part is a random draw from the data of one study; scales do not carry over between parts.

Series 1 — technique: RNA Bind-n-Seq; molecule type: RNA; medium: in vitro; tested at: 365 nM; reference: no-protein control; direction: higher = stronger binding
Target: RNA binding protein fox-1 homolog 2, RRM domain, GST-SBP tag (RBFOX2, Homo sapiens, UniProt O43251-10, residues 100-194)
Notes: natural RNA segment, single round, ends assumed
Shared flanks, not repeated: GGGAGUUCUACAGUCCGACGAUC … UGGAAUUCUCGGGUGCCAA
Target sequence (chain): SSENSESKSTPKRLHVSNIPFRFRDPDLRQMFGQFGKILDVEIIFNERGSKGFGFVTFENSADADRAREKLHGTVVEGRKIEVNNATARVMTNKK
Strand	RBNS enrichment (R)
UCUACCCUGUCCUUUGCAAUUGCUCUUCUCCACGUCUUUCCUGCUACAAGUGUUUUAGAUGUUACUACCUUAUUUUCCCCGAAUUCUAUUUUUGUCCUUGCAGACAGAAU	1.31
AGAAGCUUCUGAAAGGUCCAGUUGAUGUGGUGGUAUCAGCCUACGCCCUCAGUGAACUACCCAGCAGGGCUGAUCGCAUUGAGGUCAUUCAGAACUUGUGGCGUAAGACA	0.377
AAUAUGUAGCUAACAAAUUGACCUAGUUUCUGUAUUUUUUUGUUUUUGUACUAAAGUUUAUAGGUCUGUGCCAGCUAGAGAGAAGUUGCUGUCAUUACCAGUUGUGGUCC	0.799
CAUUGUUUGGUUCCAGAAAACCAACCACCUUUUGGUUAAGUGGUAAAUUAAAAAGAAAAACAGUUUCAAAGAAAAGCUCUGAAUCCACAAAAUGUCUUUCUCCAUGGUUU	0.765
AUUUGAAAACUCAGCAGAACAUGAACAGAUGAAAUGCAAUCCUUCUGUCAUGGAAAUAUUCACAAGAAAGCUGGCAUCUGUCCCAAUUCUCUCUCCUGUAAAUCCACGAG	0.531
UACAACAGUCAAAAAGGAAACACACGAAAAUCACUUUUCUGCAACUGAUGAACUAUAUAGACUGGACUCUUAACCUCUUAGUGCCUCAGUUUUUCCUUCGGGGUAUACUA	0.204
GGGAAGAGCUAUACUUCUGGAGAAGUAGGCCUGGAGUUACUACAGUAUGGGGGAAAAGGGUCGAGUUAGAACAAAGCUAAGGCAAUUCCUAUUGCUUCCUUGCGCAACUU	0.612
AAACUAUAGUACUGUGUAAUUAUGUAUAAAGGUUUUUUUAUUUAUUUGAAAUUAGGUUAGAUAUACAUUUUUAAAUUUAACAUCUGGCUGGACAGUGUUCUAUUAACUCA	1.2
CAGGCAAAAGUGGAGGGUGCCUUAUGGGCCCUCCUCAUAGGUUGUCUCUGCAUACACGAACCUAACCCAAAUUUGCUUUGGUGCCAGAAAAACUGAGCUAUGUUUGAACA	0.389
GCAGAGCUGCAUUGUGGUAUAUAUACUGAGAGAUCUGCAUUGUUCACCUGCCAGACUGGGAUUUUCCUCUCAUCUAAGACACAAAGCGCCUAAGGUGCUCAGCGUCUCAA	0.274
GAAUAUCAGUCAUGAUGGCAAUUUCUGUAUAAAAGAGCCUUAAAUGGAACAUUGUUUUGAGAUCAAACUCCCCACCCUCACAAAAAUGGCCACGUUGCAAUAAAAAUUGU	0.764
GGAUGAGAGAGACAUUAAAAUUCUGGAGAUGUGCUUUUAUGAUGUUACAGAUCCAAAGACAUAGAGUGAUGUGGGUGUCAGGAGACUGAAGAGAGGUGAAAGGCACACUU	2.46

Series 2 — technique: RNA Bind-n-Seq; molecule type: RNA; medium: in vitro; tested at: not given; reference: input RNA pool; direction: higher = stronger binding
Target: RING finger protein unkempt homolog, zinc fingers 1-6, GST-SBP tag (UNK, Homo sapiens, UniProt Q9C0B0, residues 30-357)
Notes: RNA with constant flanks, human and mouse sites, ends assumed
Shared flanks, not repeated: GGGAGUUCUACAGUCCGACGAUC … CAACAGAGGAUUGAGCAUCA
Target sequence (chain): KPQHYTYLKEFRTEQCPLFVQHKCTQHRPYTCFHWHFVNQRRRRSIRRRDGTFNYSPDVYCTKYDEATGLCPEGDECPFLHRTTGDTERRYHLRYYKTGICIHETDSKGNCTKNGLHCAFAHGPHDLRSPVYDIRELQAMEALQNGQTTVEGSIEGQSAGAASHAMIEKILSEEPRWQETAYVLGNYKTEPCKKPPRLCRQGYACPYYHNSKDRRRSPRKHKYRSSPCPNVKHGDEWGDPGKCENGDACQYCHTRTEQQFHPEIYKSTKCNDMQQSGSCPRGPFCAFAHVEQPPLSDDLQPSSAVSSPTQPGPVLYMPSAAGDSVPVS
Strand	bound/input enrichment [ratio]
GCUUCUAAAAUGUGAUUAUCGACCAUGGUAUGCAUGAUCGUUGUAAUUGUUGACAUUCCUUUUAGAAGUUGUGAAAUGUUACAACUUGUGCUUAUGUAGACACAAUCUUCUGUCUCAGUA	0.485
UACCAGCAGGCCCUGCUGCUCCUGGGGGCCGCCGCCCUGGCCUGCCUCGCCCUGGACCUCCUCUUCCUGCUCUUCUACUCCUUCUGGCUGUGCUGCCGGCGGCGCAAGAGCGAGGAGCAC	0.088
AUUGAGUGGGGAGCUUGUGCACUUGUUCUCACAGGAAACACAGUCAUCUUUGCAACUAUACUAGGCUUUUUCUUGGUCUUUGGAAGCAAUGACGACUUCAGCUGGCAGCAGUGGUGAAAA	0.378
CUUGCUGUUAAAUACACAGAUGCCAGAGGCCAGCCUCGCUAUCCAGUCAAUUCUGUUAAUAUUCUGAAAGCCCAUGGGAGAAGUCAGAUAGAAAGCAUGCUGAUCAAUGGCUAUGCGCUC	0.236
UACCUGUGUCCCGGCAGCCUGAUUGCUGGCAGUGCCGUUCUACUGUAUGCUUUCGUGGAGACUCGGGACAACUACUUCUACAUUCACAGCAUUUGGCACAUGCUCAUUGCUGGCAGUGUG	0.129
GCUGUUAGCAUUUUUCUCUUUGCAAUAGAUCUUCCUAUGUCAGUACACAUCAAUCUACCUCAUUCUUACCUCUGCAUAAGAGAGUAGUGUGUAGUUGUAUAAUAGUUUAACUUGGCGAUU	5.79
AAGACGCUUCUAUCUCUGGGAAAAGAGCAGCAGUUGGCCAUGUUCUUCUGUUUUCUAUUCCUGUCCUAAAUCAAAGAGCAUGGUUCUCAGGAAACCAGUUCCCCGGUCAAAAAAUCUUGU	0.186
AUGAAUCAUGCCUGUAUGCUGUUUGUAGAAAAUUAUGGACAGAAAAUAAUUAAGAAGAAUUUAUGUCGAAACUUCAUGCUUCAUCUAGUCAGCAUGCAUGACUUUAAUCUUAUUAGCAUA	0.661
GAUCUGUGUAGGUUCUGGAGCAACGUUUUCCCAGUAUUCUUUCAGUUUUUGAACAUCAUGGUGGUUGGAAUUACAGGAGCAGCUGUGGUAAUAACCAUCUUAAAGGUGUUUUUCCCAGUU	0.246
CUUCCAAAAGCCUGCUUAUACCCAGCUGUCUCUGCAGUAUAUGGCAACACAGAAGUGACUUUGGUUUAUCUUGGAAAACCUCUGGAUGGAUGACAGUGACUUUCUGGAAAGAAGAAGAGU	0.248
GGAGGCUCUUCUCUGCUCAUUGAGGCGUUAUCAAACAGUGGUCCCAAGUGCCAUCUGGACAUUAAAUAUAUCCUGAACAAGAAUGGGGGAAUGAUGGCUGAAGGAGCACGCCACUUUUUU	0.174

Series 3 — technique: protein-binding microarray; molecule type: double-stranded DNA, one strand shown; medium: in vitro; tested at: not given; direction: higher = stronger binding
Target: TATA-box-binding protein 1 (TBP1, Arabidopsis thaliana, UniProt P28147, residues 1-200, full length assumed)
Notes: k-mer, scored over probes, only values ≥0.25
Residues (chain): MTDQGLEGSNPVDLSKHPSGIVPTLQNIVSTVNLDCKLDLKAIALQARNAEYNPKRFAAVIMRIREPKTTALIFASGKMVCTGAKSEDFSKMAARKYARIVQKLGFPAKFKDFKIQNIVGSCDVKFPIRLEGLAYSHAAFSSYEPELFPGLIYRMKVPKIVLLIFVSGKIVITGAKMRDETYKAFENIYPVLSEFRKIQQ
Strand	E-score
AAATTAA	0.328
ATAATAC	0.35
TAGTATA	0.391
GATTATA	0.413
ATATCCA	0.324
ACTAAAA	0.253
GTGTATA	0.346
ATGTAAA	0.328
ATATTGA	0.349
ATATTTC	0.363
AATAATT	0.362
ATACCTA	0.311
AATATAG	0.42
ATATGCA	0.256
CTTAATA	0.346
ATATATC	0.464
AAAAACT	0.339
TCATAAA	0.257
GGATTTA	0.281
AACATAA	0.25
ATTTACC	0.255
CTTATAC	0.33
CTAATAA	0.306
AAGTAAT	0.32
CAGTTTA	0.279

Series 4 — technique: protein binding microarray; molecule type: double-stranded DNA, one strand shown; medium: in vitro; tested at: not given; reference: not given; direction: higher = stronger binding
Target: Histone acetyltransferase KAT6A, winged helix 1, GST fusion (KAT6A, Homo sapiens, UniProt Q92794, residues 1-85)
Notes: 8-mer, flanks averaged, mean of 2 arrays, mostly near background
Construct (chain): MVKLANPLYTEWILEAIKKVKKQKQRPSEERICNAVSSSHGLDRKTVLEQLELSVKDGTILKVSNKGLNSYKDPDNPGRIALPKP
Strand	E-score
CTTTGTCA	-0.0699
AATTGGCC	-0.139
ATAATATC	0.0313
CAATTCGC	0.0273
ATGGATAA	-0.209
TATGGCAA	0.0255
ACAGTACC	0.0391
CCTTAGGC	-0.0412
ACAAACCA	-0.263
AACCCGGA	0.166
GAAGTCCA	-0.219
CCATCTCA	-0.183
ACCGCGGT	0.373
ACGCACTG	0.0387
ACAGTAAG	-0.0178
TGTATGAA	-0.043
CTCTCCCC	-0.0876
ATATGTGG	-0.279
AATAACTG	-0.187
CTGTAGCA	-0.162
AGATTCAT	-0.248
ACAGAGGC	-0.0202
GTAAGTCA	-0.102
CCCTCGAG	-0.201

Series 5 — technique: universal PBM; molecule type: double-stranded DNA, one strand shown; medium: in vitro; tested at: not given; direction: higher = stronger binding
Target: Sal-like protein 4, full length isoform B (SALL4, Homo sapiens, UniProt Q9UJQ4-2, residues 1-616)
Notes: 8-mer, flanks averaged, mean of replicates
Strand	E-score
CAGGTTCA	-0.12
AAGGGTCC	-0.297
ACACAGCC	-0.2
AATGTTGG	0.129
CGAAAACG	-0.15
CTCCTCAG	-0.2
ACCTCAGC	-0.071
AGCTCCGA	-0.0409
ACGCCTCT	-0.0832
CGACCCAG	-0.232
GGCCTTCA	-0.127
GCATCAGC	-0.139
AAGTCCGA	-0.142
AACTCCAT	0.121
GCTCGGAC	-0.266
GCTCTTCC	-0.178
CCCTTCTA	-0.101
CAGGGGCA	-0.166
CCCGATAG	-0.19
AGAGGCTC	-0.161
TAACTGAA	0.106
AACCGGGC	-0.275
ACGCCTGA	0.0416
GAGGAAAA	0.154
AGGCGTAG	-0.143

For quick reference, copied from above (series 5):
Strand	E-score
GCATCAGC	-0.139
AAGTCCGA	-0.142
AACTCCAT	0.121
GCTCGGAC	-0.266
GCTCTTCC	-0.178
CCCTTCTA	-0.101
CAGGGGCA	-0.166
CCCGATAG	-0.19
AGAGGCTC	-0.161
TAACTGAA	0.106
AACCGGGC	-0.275
